Experimental data gathered from unrelated publications.
Parts stem from different laboratories: compare values within a part only. Substitutions count along the parent as printed.

Set 1 — method: RNA Bind-n-Seq; form: RNA; sample: in vitro; concentration: 365 nM; relative to: no-protein control; reading: higher = stronger binding; endpoint: RBNS enrichment (R)
Target: RNA binding protein fox-1 homolog 2, RRM domain, GST-SBP tag (RBFOX2, Homo sapiens, UniProt O43251-10, residues 100-194)
Setting: natural RNA segment, single round, ends assumed
All sequences stand within: GGGAGUUCUACAGUCCGACGAUC … UGGAAUUCUCGGGUGCCAA
Oligonucleotide = CCCCGCCUGCCACCUCCCCCCACAAGUGCCCUCCAGGCUUUUCUUGGGGAAGAUACCCCUUUUCUGAGGAAUGAGUUUGCCUCCGUCCCCUGCCCAUGCUGGGAGCCCAC; value = 0.518
Oligonucleotide = ACUUACAGAAUUAAAGAUGGCCCAUAAGGAAUUCCAGACCAAUAUUUCUUCCUGCGGUUUAUUCUAUGUUUUAUAUAUUAUCUAAAUAUAUGUAUAUGCUGUGUCAUACU; value = 0.773
Oligonucleotide = GCUUAAGCAAGGACAUUAAUCCUACUAGAUGAAGGGGAAGUUGGUUCUGUUGUCUUAAGGGAUGCCCCCUUGUGAUUUUGGUCAACUGAAUGAAAAAGAAAAGAUAGCCU; value = 0.72
Oligonucleotide = CCUGGCACCUGGCUCUGGCCGUGUUUUCUGGCCAGAGGCCCCCACUUUCCUAACUCGUGCUCCCUUCCGCCUUCUUUUCCGUACUGUGAAGAAAGAACUCUCCACCCCAG; value = 0.53
Oligonucleotide = UUUUUGUAUGCUGUGAUAAAAGAGAAAUGAAAAGUGCCAGUCACUGUGUGGUGUCUAGGAAAAUCAUAUAUAUUUUUUUCUCCAAGAAAUAAAUUCAUCCUGGACAUUGG; value = 0.513
Oligonucleotide = UCUUAGACUCGAUGCUGUAUAAAAUAUUAUGGGAAAAAAAGAAAAUACGUUAUUUUGCCUCUAAACUUUUAUUGAAGUUUUAUUUGGCAGGAAAAAAAAUUGAAUCUUGG; value = 1.16
Oligonucleotide = AAGGAGAAAUUACCAGUUACGGUUUAUUAAAUCUCUUUUAAAAUGCAGUCAAGGAAAACUAGCCUUGAAUUUUUUUUAGAUAAAAUAAGAUGGUGAUAUGAAACAAAAAG; value = 0.841
Oligonucleotide = CUGUUGCCUGUGGAGUCUCUGCUGAAAUGAAUCAGGAUUCGAGCUCUAGGAUGAGACAGAAAAUGAAAGCAUGUUGUUUGCCAGGACACUGUGGGUUUAUAUUGAUGUGU; value = 2.83

Set 2 — method: universal PBM; form: double-stranded DNA, one strand shown; sample: in vitro; concentration: 600 nM; reading: higher = stronger binding; endpoint: E-score
Target: Sal-like protein 4, full length isoform A (SALL4, Homo sapiens, UniProt Q9UJQ4, residues 1-1053)
Sequence of UniProt Q9UJQ4 (whole entry, looked up): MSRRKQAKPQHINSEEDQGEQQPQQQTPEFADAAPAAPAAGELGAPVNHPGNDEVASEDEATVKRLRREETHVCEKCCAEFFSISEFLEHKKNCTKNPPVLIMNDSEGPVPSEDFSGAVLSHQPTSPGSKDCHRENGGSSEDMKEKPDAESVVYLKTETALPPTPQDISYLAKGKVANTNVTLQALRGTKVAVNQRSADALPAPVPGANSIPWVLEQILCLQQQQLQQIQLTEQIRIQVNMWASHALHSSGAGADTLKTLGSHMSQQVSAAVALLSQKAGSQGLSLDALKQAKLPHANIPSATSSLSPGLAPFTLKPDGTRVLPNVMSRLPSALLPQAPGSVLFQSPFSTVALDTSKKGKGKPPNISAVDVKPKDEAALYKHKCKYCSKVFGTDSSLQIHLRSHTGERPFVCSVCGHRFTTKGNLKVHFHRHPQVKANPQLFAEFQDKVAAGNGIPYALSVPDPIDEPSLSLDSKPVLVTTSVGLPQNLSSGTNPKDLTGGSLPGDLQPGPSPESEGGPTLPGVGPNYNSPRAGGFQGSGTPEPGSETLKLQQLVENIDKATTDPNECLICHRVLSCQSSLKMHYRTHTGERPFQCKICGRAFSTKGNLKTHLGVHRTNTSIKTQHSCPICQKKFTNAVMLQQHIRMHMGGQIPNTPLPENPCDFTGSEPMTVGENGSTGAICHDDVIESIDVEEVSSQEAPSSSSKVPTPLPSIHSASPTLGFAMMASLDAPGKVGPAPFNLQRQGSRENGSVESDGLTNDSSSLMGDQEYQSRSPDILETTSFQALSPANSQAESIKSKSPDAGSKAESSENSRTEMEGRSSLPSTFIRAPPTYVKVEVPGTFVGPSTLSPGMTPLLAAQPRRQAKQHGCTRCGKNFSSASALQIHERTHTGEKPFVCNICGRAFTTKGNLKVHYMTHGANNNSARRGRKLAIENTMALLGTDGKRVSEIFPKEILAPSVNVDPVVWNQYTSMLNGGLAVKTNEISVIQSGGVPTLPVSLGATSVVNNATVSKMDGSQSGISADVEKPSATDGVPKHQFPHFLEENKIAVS
Setting: 8-mer, flanks averaged, mean of replicates
Oligonucleotide = ACGGAGCC; value = -0.335
Oligonucleotide = CGTTTCTC; value = -0.225
Oligonucleotide = GGGCCCCA; value = -0.397
Oligonucleotide = GCTGATCC; value = -0.211
Oligonucleotide = AAGCGATT; value = 0.0931
Oligonucleotide = CGGTCAGA; value = -0.129
Oligonucleotide = CCTGTTTC; value = -0.0333
Oligonucleotide = AGGTAGCA; value = -0.114
Oligonucleotide = GGGGGAAA; value = -0.0605
Oligonucleotide = ACCGGTCG; value = -0.287
Oligonucleotide = AATAAAAC; value = 0.29
Oligonucleotide = ACCATAAG; value = 0.2
Oligonucleotide = GAAGTGCC; value = -0.171
Oligonucleotide = ATGCACGA; value = 0.0722
Oligonucleotide = CGAAATTC; value = 0.122
Oligonucleotide = ATCTCATA; value = 0.23
Oligonucleotide = CCGTTTCC; value = -0.112
Oligonucleotide = CCGGCCAG; value = -0.373
Oligonucleotide = AAGCCTGC; value = -0.181
Oligonucleotide = CTCGGCCC; value = -0.339
Oligonucleotide = AACCACTC; value = -0.169
Oligonucleotide = AACAACGT; value = 0.00585
Oligonucleotide = CACCCGGG; value = -0.351
Oligonucleotide = GTACCTGA; value = 0.0562
Oligonucleotide = ATTGTCAG; value = 0.115

Set 3 — target: CCNE1, cyclin fold, Cln2 fusion (human); method: yeast growth competition, sequencing; sample: yeast; setting: strong parent motif; relative to: not given; reading: higher = stronger binding; endpoint: normalised enrichment score
Starting sequence: CDKN1B docking peptide (human); PSACRNLFGPVDH; partner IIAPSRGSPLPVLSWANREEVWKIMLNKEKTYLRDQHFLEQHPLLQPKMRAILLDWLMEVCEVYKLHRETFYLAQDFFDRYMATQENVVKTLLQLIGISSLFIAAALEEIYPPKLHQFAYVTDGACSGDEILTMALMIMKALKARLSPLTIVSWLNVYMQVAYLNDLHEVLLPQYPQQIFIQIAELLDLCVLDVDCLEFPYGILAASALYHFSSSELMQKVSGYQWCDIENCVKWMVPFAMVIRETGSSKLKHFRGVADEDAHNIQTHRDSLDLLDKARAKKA
Variant = PSACRNLFGSVDH [P10S]; value = 3.33
Variant = PSACRNLFGRVDH [P10R]; value = 3.5
Variant = PSRCRNLFGPVDH [A3R]; value = 0.484
Variant = PSACRNLFGPCDH [V11C]; value = 2.41
Variant = PSACRNSFGPVDH [L7S]; value = 0.322
Variant = PSACRNLFGMVDH [P10M]; value = 1.63
Variant = PSACRNYFGPVDH [L7Y]; value = 0.0711
Variant = PSACRNLFGPVHH [D12H]; value = 2.96
Variant = PSYCRNLFGPVDH [A3Y]; value = 3.79
Variant = PSACRNLFGFVDH [P10F]; value = 2.09
Variant = PSACRNLVGPVDH [F8V]; value = -0.291
Variant = PSMCRNLFGPVDH [A3M]; value = 1.32
Variant = HSACRNLFGPVDH [P1H]; value = 3.82
Variant = PSACRNLFGLVDH [P10L]; value = 2.48
Variant = PSATRNLFGPVDH [C4T]; value = 0.341
Variant = PSACRNLFKPVDH [G9K]; value = 1.73
Variant = PSACRNLFGGVDH [P10G]; value = 3.05
Variant = PSACRNLHGPVDH [F8H]; value = 0.375
Variant = TSACRNLFGPVDH [P1T]; value = 3.62

Set 4 — method: DHFR PCA, deep sequencing; sample: yeast; with: (+)-ABA 4.8 µM; relative to: wild-type fitted maximum; reading: higher = stronger binding; endpoint: relative binding score
Target: ABI1, truncated, D143A, DHFR fusion (Arabidopsis thaliana)
Setting: methotrexate growth selection, single substitutions
Starting sequence: PYL1, truncated, DHFR fusion (Arabidopsis thaliana); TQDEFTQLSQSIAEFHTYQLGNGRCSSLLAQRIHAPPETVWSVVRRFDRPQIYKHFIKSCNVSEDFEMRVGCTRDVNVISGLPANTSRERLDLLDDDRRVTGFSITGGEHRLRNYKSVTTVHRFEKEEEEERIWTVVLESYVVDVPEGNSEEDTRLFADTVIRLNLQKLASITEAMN
Variant = F56D; value = 7.7%
Variant = S26Q; value = 46.9%
Variant = E67W; value = 39.6%
Variant = E174G; value = 10.6%
Variant = V76E; value = 5.17%
Variant = E129D; value = 90.3%
Variant = Y18S; value = 32.5%
Variant = S87G; value = -0.815%
Variant = R32L; value = 64.3%
Variant = L93N; value = 8.8%
Variant = E67F; value = 44.6%
Variant = R132K; value = 92%
Variant = K126T; value = 90.5%
Variant = I12Q; value = 5.88%
Variant = A158V; value = 109%
Variant = N114T; value = -1.74%

Set 5 — method: RNA Bind-n-Seq; form: RNA; sample: in vitro; concentration: 1 µM; setting: whole 134-nt RNA, ends assumed; with: 150 mM KCl; relative to: input library; reading: higher = stronger binding; endpoint: log2 enrichment
Target: Ras GTPase-activating protein-binding protein 1, C-terminal RGG region (G3BP1, Homo sapiens, UniProt Q13283)
Sequence of UniProt Q13283 (whole entry, looked up): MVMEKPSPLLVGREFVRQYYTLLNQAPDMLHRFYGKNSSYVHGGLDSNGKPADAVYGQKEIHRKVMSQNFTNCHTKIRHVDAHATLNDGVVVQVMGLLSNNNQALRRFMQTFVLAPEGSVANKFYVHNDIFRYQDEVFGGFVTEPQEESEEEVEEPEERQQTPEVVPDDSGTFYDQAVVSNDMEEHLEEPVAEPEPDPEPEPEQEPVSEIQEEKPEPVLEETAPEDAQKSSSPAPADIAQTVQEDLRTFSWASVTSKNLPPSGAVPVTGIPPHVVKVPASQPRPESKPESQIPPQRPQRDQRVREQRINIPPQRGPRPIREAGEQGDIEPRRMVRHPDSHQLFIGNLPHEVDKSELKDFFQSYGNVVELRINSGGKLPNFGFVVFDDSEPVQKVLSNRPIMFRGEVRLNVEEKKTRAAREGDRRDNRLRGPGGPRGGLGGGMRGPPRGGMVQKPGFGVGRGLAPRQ
All sequences stand within: GGGAGUUCUACAGUCCGACGAUC … UGGAAUUCUCGGGUGUCAAGG
Oligonucleotide = UCAAGUCCUGUGCUACACAUCGUAUGUACCGAAUCGGGGCCCGGCCCGGCCCGGAAAGUAUUAUGUUACGCCGUUCGGAUCUGCACUUCC; value = -1.56
Oligonucleotide = UGGAGCUGAAGAGCCAAGAGGCUCCGAGUCUGCAGCAGCAGCCAGACCAGUACCUGGAGCCCCAGUCCCACAAGGAGCUUGGAUGUGCGG; value = -1.04
Oligonucleotide = CACAGACAACACGCACCCACACAGACACAGAGGGAAGGGGUUGGGAUGGGGACAGGGUGCACAGCAGGGCGGGGUAGGACCACAGCCCCU; value = -1.02
Oligonucleotide = UCUAUGUAGCAUCCAGGUACUACUUCCUUUGGAAUGUCAGUAUUUAAUCUGAGCAAUGCGAUUGUGGGCAGUGGAAUCCUUGGGCUUUCU; value = -0.463
Oligonucleotide = GUCCUGUGCUACACAUCGUAUGUACCGAAUCAAACCCAAACCCCCAAAUUUUUUUAAAAAAGUAUUAUGUUACGCCGUUCGGAUCUGCAC; value = -0.939
Oligonucleotide = UGGCCCUGGUGGCAUGCGGGGAGGAAGAGGUGGCCUCAUGGAUCGUGGUGGUCCCGGUGGAAUGUUCAGCGGUGGCCGUGGUGGAGACAG; value = 2.75
Oligonucleotide = UUACCGACACCGUAGAACAGAGCAAGAGGAGGAUGAAGAGCUAUUAACAGAAAGCUCCAAAGCAACCAAUGUUUGCACUCGAUUUGAAGA; value = -1.47
Oligonucleotide = AGUCCUGUGCUACACAUCGUAUGUACCGAAUCGGGGAAAAGGAAAAGGGAAAAGGGGAAAGUAUUAUGUUACGCCGUUCGGAUCUGCACU; value = -1.02
Oligonucleotide = UGUGCUACACAUCGUAUGUACCGAAUCGGGGUUUUUUUGGGGUUUUUGGGGAAAAAAAGGGGAAAGUAUUAUGUUACGCCGUUCGGAUCU; value = 0.0932

For quick reference, copied from above (set 2):
Oligonucleotide = GGGGGAAA; value = -0.0605
Oligonucleotide = CCGTTTCC; value = -0.112
Oligonucleotide = AAGCCTGC; value = -0.181
Oligonucleotide = CGAAATTC; value = 0.122
Oligonucleotide = GGGCCCCA; value = -0.397
Oligonucleotide = ATTGTCAG; value = 0.115
Oligonucleotide = GCTGATCC; value = -0.211
Oligonucleotide = AATAAAAC; value = 0.29
Oligonucleotide = CGTTTCTC; value = -0.225
Oligonucleotide = AACCACTC; value = -0.169
Oligonucleotide = CACCCGGG; value = -0.351
